Measured values of several laboratories.
Every numbered part comes from another study and shows a few of its results, in no order. ≈ marks a conversion by molar mass, not a printed value.

Series 1
Structure (SMILES): CO/N=C(\C(=O)N[C@@H]1C(=O)N2C(C(=O)O)=C(COC(C)=O)CS[C@H]12)c1csc(N)n1
Organism: Pseudomonas aeruginosa
It gave 8 µg/mL (≈ 17.6 µM) for MIC (broth microdilution; clinical isolate RKI-No 483/15-1).
The MIC was greater than 16 µg/mL (clinical isolate RKI-No_254/15).
For clinical isolate RKI-No_479/15: MIC read greater than 16 µg/mL.
It gave greater than 16 µg/mL for MIC (clinical isolate RKI-No_482/15).

Series 2
SMILES: Fc1ccccc1Cc1nc(-c2nc(C(F)(F)F)n[nH]2)cn2ccnc12
Species: healthy volunteers
Setting: single ascending dose
Reference: placebo
It gave 2.5 for “word recall correct number” (20 mg).
It gave -0.5 for “word recall correct number” (0.3 mg).
It gave -0.1 for “word recall correct number” (10 mg).
For 50 mg: “word recall correct number” read -2.5.

Single results of other studies
T1: DNA aptamer; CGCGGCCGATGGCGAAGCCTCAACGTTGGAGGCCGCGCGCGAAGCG
Under “GIF level difference”, `N#CCC1CCN(c2nc(Nc3ccc(N4CCC(O)CC4)cc3)c3c(=O)[nH]ncc3n2)CC1` is recorded as 1.28 (vs placebo, Olink multiplex; human, serum; 40 mg, day 29, unit not given; reference: placebo).
With `C=C1[C@@H](O)[C@@H]2O[C@]3(CC[C@H](/C=C/[C@@H](C)[C@@H]4CC(C)=C[C@@]5(O[C@H](C[C@@](C)(O)C(=O)O)CC[C@H]5O)O4)O3)CC[C@H]2O[C@@H]1[C@@H](O)C[C@H](C)[C@H]1O[C@@]2(CCCCO2)CC[C@H]1C` the Kd was 254 nM (T1, DNA aptamer; microscale thermophoresis; pH 7.5, 25 °C, NaCl 150 mM).
